Measured values gathered from unrelated publications.
Parts stem from different laboratories: compare values within a part only. Positions count from the first letter of the parent shown.

Study 1
Target: RNA binding protein fox-1 homolog 2, RRM domain, GST-SBP tag (RBFOX2, Homo sapiens, UniProt O43251-10, residues 100-194)
Technique: RNA Bind-n-Seq
Molecule type: RNA
Matrix: in vitro
Concentration: 365 nM
Notes: natural RNA segment, single round, ends assumed
Reference: no-protein control
Direction: higher = stronger binding
Constant ends, left off below: GGGAGUUCUACAGUCCGACGAUC … UGGAAUUCUCGGGUGCCAA
Construct (chain): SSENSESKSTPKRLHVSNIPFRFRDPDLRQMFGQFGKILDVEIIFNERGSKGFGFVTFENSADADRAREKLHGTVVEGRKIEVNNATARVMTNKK
Strand | RBNS enrichment (R)
CCUUGUCUGGUAAUUGUGGAUUAAUGUCAGCGUUAAUCAGCCCCUCAAAGGGAGAGAAAAGCUGGGCUUUUCCCUUGCUGUACCUCAUUCAGCUUUUGAUUUCCAUGGCC | 0.235
UCUCUCAUUUUUUUCCUCCCAGUUUCCAAACAAGCCCUCAGUGAACAUCAUUGAAGCGUGACUGCCUGUCUGCAGGGAGAAGGAUUCCAUUUUUCUUCUCAGCUGGUCCC | 0.342
CCAAGUGUCCAGCCUGGCACUUCCCAUUCAGGCCACCUGCUUUGGGUCAACAGUUCCUUUGCCAGCAGCAUCUCCUAAAUUGUAAGGACUCUGUCCACCGGGGCCCUCCC | 0.718
UGAAUUUUUAAUGCAGCAAUGUUGACUUUGUUUCAUACUGCCAAUAAACUCUUAAUACUAAAUACUGGUAAAGCAUAUUCUUUUUUUUUUUUCUAUUUGGAAAGACGCCA | 0.8
CACCAUCCAUCUUCAAGAAGCUACUUUGAAAGUCUGGCCAGUGUCUAUUCAGGCCCACUGGGAGUUAGGAAGUAUAAGUAAGCCAAGAGAAGUCAGCCCCUGCCCAGAAG | 0.4

Study 2
Target: Phosphate system positive regulatory protein PHO4, full length, GST-tagged (PHO4, Saccharomyces cerevisiae, UniProt P07270, residues 1-312)
Technique: competition protein-binding microarray
Molecule type: double-stranded DNA, one strand shown
Matrix: in vitro
Concentration: 2 µM
Notes: whole 60-bp probe, lowest competitor level
Added: Cbf1 competitor, 0.05 µM
Direction: higher = stronger binding
Constant ends, left off below: … GTCTTGATTCGCTTGACGCTGCTG
Residues (chain): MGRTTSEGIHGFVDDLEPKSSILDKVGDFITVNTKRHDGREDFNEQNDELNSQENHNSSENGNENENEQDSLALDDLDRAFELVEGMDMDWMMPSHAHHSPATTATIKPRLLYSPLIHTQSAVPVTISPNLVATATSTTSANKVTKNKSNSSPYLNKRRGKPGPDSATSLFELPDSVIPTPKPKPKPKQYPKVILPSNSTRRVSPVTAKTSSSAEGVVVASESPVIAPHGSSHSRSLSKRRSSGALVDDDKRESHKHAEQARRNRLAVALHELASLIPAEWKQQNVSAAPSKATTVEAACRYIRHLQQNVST
Strand | fluorescence intensity [a.u.]
CTTCTGTAAATTTTTCACGTGACTTGACGCGCCCCG | 10000
TCTCCACCTCTACGACCCGTGCGGAAGGTGGAAACC | 8300
TTGTTTCATCCAGGGTACGTGGCCGCACTTGTCAAT | 8440
GTCTTGTCTCATTTTCACGTGTTTTTCCCCACTTCA | 12800
CCTGCCCTCACCATACAAAACAACCGTTTATAGATA | 3980
GCTAGAGAGTTTCACCACGTTAATGGACTGAACCTT | 6270
GTCTTGTCTCATTGTCTGGTGGGTGTCCCCACTTCA | 4730
CATACCCAACCTTGAACCGTGGGTGAAGATATTTGT | 7110

Study 3
Target: CCNB2, cyclin fold, Cln2 fusion (human)
Technique: yeast growth competition, sequencing
Matrix: yeast
Notes: strong parent motif
Reference: not given
Direction: higher = stronger binding
Parent: PKMYT1 docking peptide (human); SFEPRNLLSLFED
Change | normalised enrichment score
F11C | -0.807
N6V | -0.364
P4E | -0.587
S9I | 0.873
F2T | 0.572
F11D | -0.393
D13E | 1.7
F2A | 0.379

Single results of other studies
Molecule | target | test | test system | conditions | how to read | endpoint | value
PhoQ, residues 284 288 289 292 302 303 WVSSAF | PhoP, residues 12 14 15 18 19 SQCLL (Escherichia coli, UniProt P23836) | Sort-seq, refers to: YFP reporter | E. coli | PhoQ-PhoP variant library, added: 10 µM Mg2+ | reference: high Mg2+ state, higher = stronger signaling | fold induction | 10.3

Excerpt of the above (study 3):
Change | normalised enrichment score
D13E | 1.7
N6V | -0.364
S9I | 0.873
